Assay results of several laboratories.
A part holds a random share of what one study measured. Values joined by “and” are separate records of one study, mostly repeats; a detail may differ.
Sequence of UniProt P52564 (whole entry, looked up): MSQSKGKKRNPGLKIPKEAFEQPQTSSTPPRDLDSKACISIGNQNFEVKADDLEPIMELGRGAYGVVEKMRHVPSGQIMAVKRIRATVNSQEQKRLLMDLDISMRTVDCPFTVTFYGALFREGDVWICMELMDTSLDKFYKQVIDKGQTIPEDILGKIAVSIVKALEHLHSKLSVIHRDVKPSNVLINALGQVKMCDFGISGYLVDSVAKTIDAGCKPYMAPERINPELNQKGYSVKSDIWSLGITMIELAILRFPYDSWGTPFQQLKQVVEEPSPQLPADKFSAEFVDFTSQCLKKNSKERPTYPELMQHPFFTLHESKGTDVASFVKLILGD
Sequence of UniProt P51957 (whole entry, looked up): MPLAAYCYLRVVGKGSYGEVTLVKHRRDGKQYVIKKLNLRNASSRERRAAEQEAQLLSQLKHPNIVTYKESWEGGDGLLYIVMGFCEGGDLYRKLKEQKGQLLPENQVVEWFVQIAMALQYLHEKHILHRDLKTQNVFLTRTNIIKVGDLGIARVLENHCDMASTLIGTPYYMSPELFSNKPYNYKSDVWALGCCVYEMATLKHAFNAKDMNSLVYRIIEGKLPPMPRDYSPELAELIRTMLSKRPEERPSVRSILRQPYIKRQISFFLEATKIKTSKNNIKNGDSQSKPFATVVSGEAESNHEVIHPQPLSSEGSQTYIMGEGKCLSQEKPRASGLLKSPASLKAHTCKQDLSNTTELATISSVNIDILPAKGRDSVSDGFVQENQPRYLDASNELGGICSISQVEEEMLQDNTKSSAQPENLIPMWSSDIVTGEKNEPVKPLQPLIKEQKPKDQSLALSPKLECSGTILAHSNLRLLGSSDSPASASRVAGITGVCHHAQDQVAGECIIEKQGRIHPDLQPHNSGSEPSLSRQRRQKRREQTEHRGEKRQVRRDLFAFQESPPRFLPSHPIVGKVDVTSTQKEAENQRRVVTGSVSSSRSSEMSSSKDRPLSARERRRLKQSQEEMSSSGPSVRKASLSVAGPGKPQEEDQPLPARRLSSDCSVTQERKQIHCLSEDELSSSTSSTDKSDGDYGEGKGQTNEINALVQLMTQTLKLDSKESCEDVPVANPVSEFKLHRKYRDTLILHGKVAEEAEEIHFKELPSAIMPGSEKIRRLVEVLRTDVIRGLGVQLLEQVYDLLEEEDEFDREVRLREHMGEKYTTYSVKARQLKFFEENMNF
Sequence of UniProt Q8WXR4 (whole entry, looked up): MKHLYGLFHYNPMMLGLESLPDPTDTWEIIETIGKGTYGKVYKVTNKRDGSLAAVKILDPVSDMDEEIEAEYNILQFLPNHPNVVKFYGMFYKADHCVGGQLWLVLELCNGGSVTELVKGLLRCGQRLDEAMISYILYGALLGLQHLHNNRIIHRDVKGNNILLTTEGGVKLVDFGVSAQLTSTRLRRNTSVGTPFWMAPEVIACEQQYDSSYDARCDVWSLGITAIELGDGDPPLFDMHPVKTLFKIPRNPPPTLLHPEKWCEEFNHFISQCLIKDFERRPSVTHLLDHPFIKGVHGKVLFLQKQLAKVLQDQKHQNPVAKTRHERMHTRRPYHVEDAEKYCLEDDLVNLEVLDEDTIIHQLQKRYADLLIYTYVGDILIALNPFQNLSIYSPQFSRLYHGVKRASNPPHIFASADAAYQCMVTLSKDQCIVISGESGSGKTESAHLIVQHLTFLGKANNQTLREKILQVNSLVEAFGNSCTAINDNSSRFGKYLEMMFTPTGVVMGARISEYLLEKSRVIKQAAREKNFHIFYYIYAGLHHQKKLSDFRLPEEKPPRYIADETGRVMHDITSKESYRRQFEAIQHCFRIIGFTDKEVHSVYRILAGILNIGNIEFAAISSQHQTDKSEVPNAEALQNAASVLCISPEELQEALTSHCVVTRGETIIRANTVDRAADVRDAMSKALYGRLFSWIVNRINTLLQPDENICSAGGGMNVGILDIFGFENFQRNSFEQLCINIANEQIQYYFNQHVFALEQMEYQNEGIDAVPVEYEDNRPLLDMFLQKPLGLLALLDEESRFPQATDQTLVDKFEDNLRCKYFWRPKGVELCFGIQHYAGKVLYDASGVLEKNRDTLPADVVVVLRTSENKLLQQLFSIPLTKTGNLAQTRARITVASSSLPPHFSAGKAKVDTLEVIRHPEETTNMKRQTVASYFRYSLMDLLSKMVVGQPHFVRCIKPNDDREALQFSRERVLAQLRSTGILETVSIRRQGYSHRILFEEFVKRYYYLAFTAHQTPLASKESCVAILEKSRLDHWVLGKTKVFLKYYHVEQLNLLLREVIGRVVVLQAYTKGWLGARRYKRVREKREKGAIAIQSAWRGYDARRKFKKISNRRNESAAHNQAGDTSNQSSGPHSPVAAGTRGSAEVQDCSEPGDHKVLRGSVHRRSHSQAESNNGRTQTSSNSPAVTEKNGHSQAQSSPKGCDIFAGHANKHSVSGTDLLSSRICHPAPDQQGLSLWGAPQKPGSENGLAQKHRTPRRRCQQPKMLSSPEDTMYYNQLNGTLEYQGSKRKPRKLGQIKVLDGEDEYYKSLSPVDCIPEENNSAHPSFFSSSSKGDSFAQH
Sequence of UniProt Q92772 (whole entry, looked up): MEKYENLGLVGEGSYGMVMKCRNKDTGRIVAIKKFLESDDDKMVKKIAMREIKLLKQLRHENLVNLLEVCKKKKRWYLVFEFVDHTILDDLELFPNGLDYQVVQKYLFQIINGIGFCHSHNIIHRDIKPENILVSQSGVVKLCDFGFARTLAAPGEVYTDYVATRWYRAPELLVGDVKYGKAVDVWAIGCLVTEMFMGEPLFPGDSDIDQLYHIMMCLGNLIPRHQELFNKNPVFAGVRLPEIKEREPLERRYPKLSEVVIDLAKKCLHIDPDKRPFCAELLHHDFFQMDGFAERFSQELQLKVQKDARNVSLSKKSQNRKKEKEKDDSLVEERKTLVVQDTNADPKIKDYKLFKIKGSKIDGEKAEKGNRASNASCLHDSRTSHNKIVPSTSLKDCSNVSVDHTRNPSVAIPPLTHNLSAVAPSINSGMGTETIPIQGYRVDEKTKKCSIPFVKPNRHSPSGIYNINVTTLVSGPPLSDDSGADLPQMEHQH
Sequence of UniProt Q15303 (whole entry, looked up): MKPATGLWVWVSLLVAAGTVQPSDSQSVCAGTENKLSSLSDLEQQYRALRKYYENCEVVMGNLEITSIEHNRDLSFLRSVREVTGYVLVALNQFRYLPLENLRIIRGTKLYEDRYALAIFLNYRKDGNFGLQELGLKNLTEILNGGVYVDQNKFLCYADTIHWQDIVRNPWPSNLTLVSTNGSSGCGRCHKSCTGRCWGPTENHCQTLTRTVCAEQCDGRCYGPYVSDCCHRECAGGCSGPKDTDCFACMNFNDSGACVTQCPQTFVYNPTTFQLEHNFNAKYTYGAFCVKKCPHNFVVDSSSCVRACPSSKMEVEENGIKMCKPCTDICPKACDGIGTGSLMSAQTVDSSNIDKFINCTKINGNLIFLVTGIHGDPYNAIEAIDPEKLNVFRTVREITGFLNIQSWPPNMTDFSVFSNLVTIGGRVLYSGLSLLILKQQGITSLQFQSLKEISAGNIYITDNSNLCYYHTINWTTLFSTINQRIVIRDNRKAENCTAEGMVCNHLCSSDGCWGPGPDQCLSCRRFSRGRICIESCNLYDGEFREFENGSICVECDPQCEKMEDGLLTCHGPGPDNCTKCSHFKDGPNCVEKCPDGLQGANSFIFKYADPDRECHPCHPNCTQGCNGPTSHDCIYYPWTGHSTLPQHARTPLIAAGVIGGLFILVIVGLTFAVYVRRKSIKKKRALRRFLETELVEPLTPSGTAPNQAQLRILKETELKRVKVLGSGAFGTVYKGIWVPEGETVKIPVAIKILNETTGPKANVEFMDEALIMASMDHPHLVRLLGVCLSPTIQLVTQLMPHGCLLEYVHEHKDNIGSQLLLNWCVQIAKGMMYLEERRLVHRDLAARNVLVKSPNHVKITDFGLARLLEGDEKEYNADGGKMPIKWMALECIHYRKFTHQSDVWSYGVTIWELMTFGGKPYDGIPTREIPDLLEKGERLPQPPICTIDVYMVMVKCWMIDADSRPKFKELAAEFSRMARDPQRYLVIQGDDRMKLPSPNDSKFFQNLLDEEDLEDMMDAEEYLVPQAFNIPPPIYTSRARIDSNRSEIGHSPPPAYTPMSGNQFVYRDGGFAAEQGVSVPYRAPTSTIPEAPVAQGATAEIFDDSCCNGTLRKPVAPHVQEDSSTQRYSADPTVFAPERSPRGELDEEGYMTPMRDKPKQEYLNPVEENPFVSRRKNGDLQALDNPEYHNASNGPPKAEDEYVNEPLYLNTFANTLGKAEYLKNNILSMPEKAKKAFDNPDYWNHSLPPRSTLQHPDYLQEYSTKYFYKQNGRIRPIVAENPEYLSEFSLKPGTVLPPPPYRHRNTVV
Sequence of UniProt P78356 (whole entry, looked up): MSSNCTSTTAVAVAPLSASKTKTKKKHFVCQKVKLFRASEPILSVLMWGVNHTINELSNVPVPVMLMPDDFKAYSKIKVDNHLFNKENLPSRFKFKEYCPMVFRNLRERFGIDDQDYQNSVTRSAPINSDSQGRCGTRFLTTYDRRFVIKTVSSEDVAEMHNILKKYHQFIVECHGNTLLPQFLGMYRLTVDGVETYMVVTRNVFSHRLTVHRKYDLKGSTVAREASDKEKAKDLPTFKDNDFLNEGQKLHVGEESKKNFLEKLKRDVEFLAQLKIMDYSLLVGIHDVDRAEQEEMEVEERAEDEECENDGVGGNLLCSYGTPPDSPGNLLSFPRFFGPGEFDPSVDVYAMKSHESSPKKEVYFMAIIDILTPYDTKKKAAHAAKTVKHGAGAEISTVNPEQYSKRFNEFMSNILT

Block 1
SMILES: COc1cc(-c2cn(C3CCc4ccccc4N(CC(F)(F)F)C3=O)nn2)ccc1-n1ccc(C)n1 (stereo not drawn)
Method: competition with immobilised ligand
Tested at: 1 µM
target	assay	remaining binding
NEK4 (Homo sapiens, UniProt P51957)	cell-free assay	100%
DSTYK (Homo sapiens, UniProt Q6XUX3)	cell-free assay	100%
WNK4 (Homo sapiens, UniProt Q96J92)	cell-free assay	100%
PIP4K2B (Homo sapiens, UniProt P78356)	cell-free assay	65%
CDKL2 (Homo sapiens, UniProt Q92772)	binding	91%
MAP2K6 (Homo sapiens, UniProt P52564)	cell-free assay	100%
MAPKAPK5 (Homo sapiens, UniProt Q8IW41)	cell-free assay	91%
ERBB4 (Homo sapiens, UniProt Q15303)	cell-free assay	100%
Myosin-IIIb (MYO3B, Homo sapiens, UniProt Q8WXR4)	binding	100%
ALK (Homo sapiens, UniProt Q9UM73, C1156Y)	cell-free assay	100%
TNNI3K (Homo sapiens, UniProt Q59H18)	cell-free assay	100%
CAMK2B (Homo sapiens, UniProt Q13554)	cell-free assay	97%
FLT3 (Homo sapiens, UniProt P36888, K663Q)	cell-free assay	100%

Block 2
Target: Dual specificity tyrosine-phosphorylation-regulated kinase 4 (DYRK4, Homo sapiens, UniProt Q9NR20)
Read-out: enzyme activity
Action: inhibitor
Tested at: 0.5 µM
Baseline: control
Construct (Q9NR20 1-520): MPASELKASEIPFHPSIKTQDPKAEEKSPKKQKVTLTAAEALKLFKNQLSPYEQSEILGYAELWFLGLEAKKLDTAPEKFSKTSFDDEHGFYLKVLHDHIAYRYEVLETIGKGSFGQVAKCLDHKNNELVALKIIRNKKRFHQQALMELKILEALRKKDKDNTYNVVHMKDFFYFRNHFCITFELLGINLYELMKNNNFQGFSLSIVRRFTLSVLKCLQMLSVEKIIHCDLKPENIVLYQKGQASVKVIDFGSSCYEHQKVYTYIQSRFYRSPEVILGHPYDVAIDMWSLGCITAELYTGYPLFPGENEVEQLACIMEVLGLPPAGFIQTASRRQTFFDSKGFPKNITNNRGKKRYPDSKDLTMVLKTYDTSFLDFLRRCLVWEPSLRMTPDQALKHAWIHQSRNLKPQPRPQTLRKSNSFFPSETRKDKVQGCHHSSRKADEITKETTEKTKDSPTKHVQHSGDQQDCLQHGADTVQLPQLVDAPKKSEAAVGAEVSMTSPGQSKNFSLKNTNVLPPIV
SMILES	remaining activity
Cn1nc2c3c(cccc31)C(=O)c1ccccc1-2	91.2%
CCOc1nc(NC(=O)Cc2cc(OC)ccc2OC)cc(N)c1C#N	92.6%
C[C@@H]1CCN(C(=O)CC#N)C[C@@H]1N(C)c1ncnc2[nH]ccc12	97.2%
Nc1cccc(-c2cc3c(Oc4cccc(O)c4)ncnc3[nH]2)c1	101%
c1ccc(-c2cnc(Nc3ccc(OCCN4CCCC4)cc3)s2)cc1	99.4%
CN([C@@H](Cc1ccc(OS(=O)(=O)c2cccc3cnccc23)cc1)C(=O)N1CCN(c2ccccc2)CC1)S(=O)(=O)c1cccc2cnccc12	97.8%
Cc1cn(-c2cc(NC(=O)c3ccc(C)c(Nc4nccc(-c5cccnc5)n4)c3)cc(C(F)(F)F)c2)cn1	101%
O=c1cc(-c2cccc3c2Sc2ccccc2S3)oc(N2CCOCC2)c1	105%
Cc1cc2ncc(-c3ccccc3)nc2cc1C	90.3%
O=C1C(Cl)=C(N2C(=O)CCC2=O)C(=O)c2ccccc21	94.1%
N#C/C(=C\c1ccc(O)c(O)c1)C(=O)NCc1ccccc1	106%
CCN(CC)CCNC(=O)c1c(C)[nH]c(/C=C2\C(=O)Nc3ccc(Cl)cc32)c1C	97.9%

Block 3
Cell line: mouse MPNST tumor cells
Method: high-content nuclear imaging
Item: cell number
Tested at: 10 µM
Time: 12 h
Setting: mean of 2 replicates
Baseline: plate mean
Direction: higher = more cells
Structure (SMILES)	nuclei count
N=C(N)NC(=O)c1nc(Cl)c(N)nc1N	1.79 z-score and 2.56 z-score
CC(=O)OCC(CCn1cnc2cnc(N)nc21)COC(C)=O	1.14 z-score
Nc1ncnc2c1ncn2C1CCCO1 (stereo not drawn)	0.523 z-score
CN(C)CC[C@@H](c1ccc(Cl)cc1)c1ccccn1	2.75 z-score
COC(=O)C(NC(=O)c1cc(-c2ccccc2)nc2ccccc12)c1ccccc1 (stereo not drawn)	1.05 z-score
N=C(N)NCCC[C@@H](NC(=O)C(c1ccccc1)c1ccccc1)C(=O)NCc1ccc(CNC(N)=O)cc1	2.39 z-score
CCS(=O)(=O)Nc1ccc2[nH]c(O)c(C(=Nc3ccc(CN4CCCCC4)cc3)c3ccccc3)c2c1	-4.3 z-score
CC(C)(C)C(=O)OCOC(=O)[C@@H]1N2C(=O)[C@@H](/N=C/N3CCCCCC3)[C@H]2SC1(C)C	0.233 z-score
COc1cccc(OC)c1-c1ccc(C[C@H](NC(=O)c2c(Cl)cccc2Cl)C(=O)O)cc1	-0.578 z-score
O=C(Oc1nsnc1N1CCCCC1)N1CCCCC1	0.728 z-score

Mixed results
Structure (SMILES)	target	assay	system	setting	scale	measurement	value
Cn1cnc(Cn2ccc3ccc(CNCc4[nH]c5ccccc5c4[C@H]4NC(=O)c5ccc(O)cc54)cc32)c1	GTPase KRas (KRAS, Homo sapiens, UniProt P01116, G12C)	binding, NanoBRET	HEK293 (live)	0.3468 µM, 2 h	lower = stronger binding	target engagement	11.9% and 13.1% and 13.2% and 14.1%

Excerpt of the above (block 1):
target	assay	remaining binding
NEK4 (Homo sapiens, UniProt P51957)	cell-free assay	100%
DSTYK (Homo sapiens, UniProt Q6XUX3)	cell-free assay	100%
WNK4 (Homo sapiens, UniProt Q96J92)	cell-free assay	100%
PIP4K2B (Homo sapiens, UniProt P78356)	cell-free assay	65%
CDKL2 (Homo sapiens, UniProt Q92772)	binding	91%
